Published values collected from several papers.
Protocols differ between the studies behind these lines. ± marks the error that the study gave.
Organism: HIV-1

Nc1ccn(C2OC(CO)C3CC=CCC32)c(=O)n1 (mixture of isomers)
EC90 (viral replication; human PBM cells, LAI): > 100000 nM

COc1ccc(-n2c(SCCN(C)C)nnc2[C@H](Cc2ccccc2)NC(=O)Cc2c(C)[nH]c3ccccc23)cc1
selectivity index (MT-4, wild type; relative to: CC50 over EC50): 27

Cc1cc(C#N)cc(C)c1Oc1nc(NC2CCN(Cc3ccc(S(N)(=O)=O)cc3)CC2)nc2ncccc12
EC50 (viral replication, luciferase reporter; TZM-bl, NL4-3 wild type): 2.02 ± 0.53 nM

Nc1ncnc2c1ncn2C1OC(CO)C2CC=CCC21 (mixture of isomers)
EC90 (viral replication; human PBM cells, LAI): > 100000 nM

COc1ccc(-n2c(SCCN3CCOCC3)nnc2[C@H](Cc2ccccc2)NC(=O)Cc2c(C)[nH]c3ccccc23)cc1
selectivity index (MT-4, wild type; relative to: CC50 over EC50): 103

CC(=O)NCCN(CC(=O)NCCN(CC(=O)NCCN(CC(=O)NCCC(N)=O)C(=O)C[C@@H](N)CCCCN)C(=O)C[C@@H](N)Cc1ccccc1)C(=O)C[C@@H](N)Cc1ccccc1
selectivity index (PBMC, LAI; relative to: CC50 over EC50): > 4

Cc1cc(C#N)cc(C)c1Oc1nc(NC2CCN(Cc3ccccn3)CC2)nc2ccccc12
EC50 (viral replication, luciferase reporter; TZM-bl, NL4-3 wild type): 16.9 ± 5.32 nM

CC(=O)NCCN(CC(=O)NCCN(CC(=O)NCCN(CC(=O)NCCC(N)=O)C(=O)C[C@@H](N)Cc1ccccc1)C(=O)C[C@@H](N)CCCNC(=N)N)C(=O)C[C@@H](N)CCCNC(=N)N
selectivity index (PBMC, LAI; relative to: CC50 over EC50): > 10.5

COC(=O)c1ccc(CN2CCC(Nc3nc(Oc4c(C)cc(C#N)cc4C)c4ccccc4n3)CC2)cc1
EC50 (viral replication, luciferase reporter; TZM-bl, NL4-3 wild type): 28.4 ± 8.93 nM

CC(=O)OCC1OC(n2ccc(=O)[nH]c2=O)C2CC=CCC12 (mixture of isomers)
EC90 (viral replication; human PBM cells, LAI): > 100000 nM

COc1cc2nc(NC3CCN(Cc4ccc(S(C)(=O)=O)cc4)CC3)nc(Oc3c(C)cc(C#N)cc3C)c2cc1OC
EC50 (viral replication, luciferase reporter; TZM-bl, NL4-3 wild type): 7.98 ± 2.66 nM

CC(=O)N[C@H](CCCNC(=N)N)C(=O)N[C@H](CCCNC(=N)N)C(=O)N[C@H](CCCNC(=N)N)C(=O)N[C@H](CCCNC(=N)N)C(=O)N[C@H](CCCNC(=N)N)C(=O)N[C@H](CCCNC(=N)N)C(=O)N[C@H](CCCNC(=N)N)C(=O)N[C@H](CCCNC(=N)N)C(=O)N[C@H](CCCNC(=N)N)C(N)=O
IC50 (viral entry, luciferase reporter; PM1, HXB2 Env pseudotype): ~300 nM

Cc1cc(/C=C/C#N)cc(C)c1Oc1nc(NC2CCN(Cc3ccc(S(C)(=O)=O)cc3)CC2)nc2ncccc12
EC50 (viral replication, MTT; MT-4, IIIB): 1.4 nM

C=CCSc1nnc([C@H](Cc2ccccc2)NC(=O)Cc2c(C)[nH]c3ccccc23)n1-c1ccc(OC)cc1
selectivity index (MT-4, wild type; relative to: CC50 over EC50): 12

COc1cccc2c(Oc3c(C(F)(F)F)ccn(Cc4n[nH]c(=O)n4C)c3=O)cc(C)nc12
selectivity index (MT4, wild type; relative to: CC50 over EC50): < 1

CCN(Cc1cccc(S(=O)(=O)O)c1)c1ccc(C(=C2C=CC(=[N+](CC)Cc3cccc(S(=O)(=O)[O-])c3)C=C2)c2ccccc2)cc1
IC50 (cell-cell fusion; H9/HIV-1 IIIB and MT2 cells): 12700 nM

Cc1cc(/C=C/C#N)cc(C)c1Oc1nc(NC2CCN(Cc3ccc(S(C)(=O)=O)cc3)CC2)nc2ccccc12
EC50 (viral replication, luciferase reporter; TZM-bl, NL4-3 wild type): 22.5 ± 4.05 nM

CC(=O)NCCN(CC(=O)NCCN(CC(=O)NCCN(CC(=O)NCCC(N)=O)C(=O)C[C@@H](N)CCCNC(=N)N)C(=O)C[C@@H](N)Cc1ccccc1)C(=O)C[C@@H](N)Cc1ccccc1
selectivity index (PBMC, LAI; relative to: CC50 over EC50): > 8

CC(=O)Nc1ccn(C2OC(COC(C)=O)C3CC=CCC32)c(=O)n1 (mixture of isomers)
EC90 (viral replication; human PBM cells, LAI): > 100000 nM

CC(=O)N[C@@H](CC(C)C)C(=O)N[C@@H](CS)C(=O)N[C@@H](CC(=O)O)C(=O)N[C@@H](CS)C(=O)N1CCC[C@H]1C(=O)N[C@@H](CC(N)=O)C(=O)NCC(=O)N1CCC[C@H]1C(=O)N[C@@H](Cc1c[nH]c2ccccc12)C(=O)N[C@H](C(=O)N[C@@H](Cc1c[nH]c2ccccc12)C(=O)N[C@H](C(=O)N1CCC[C@H]1C(=O)N[C@@H](C)C(=O)N[C@@H](Cc1ccccc1)C(=O)N[C@@H](CS)C(=O)N[C@@H](CCC(N)=O)C(=O)N[C@@H](C)C(=O)N[C@H](C(=O)NCC(=O)O)C(C)C)C(C)C)C(C)C
inhibition (viral replication; CEMx174 SEAP reporter, NL4-3; 10 µM): 86%

Cc1cc(/C=C/C#N)cc(C)c1Oc1nc(NC2CCN(Cc3ccc(C(N)=O)cc3)CC2)nc2ccccc12
EC50 (viral replication, luciferase reporter; TZM-bl, NL4-3 wild type): 6.2 ± 2.44 nM

COc1ccc(-n2c(SCc3ccncc3)nnc2[C@H](Cc2ccccc2)NC(=O)Cc2c(C)[nH]c3ccccc23)cc1
selectivity index (MT-4, wild type; relative to: CC50 over EC50): 9

Cc1cc(C#N)cc(C)c1Oc1nc(NC2CCN(Cc3ccc(C#N)cc3)CC2)nc2ccccc12
EC50 (viral replication, luciferase reporter; TZM-bl, NL4-3 wild type): 11.4 ± 3.62 nM

NCCCC[C@H](NC(=O)[C@H](CC(N)=O)NC(=O)[C@H](CCCCNC(=O)[C@H](Cc1ccc(B(O)O)cc1)NC(=O)[C@H](Cc1ccc(O)cc1)NC(=O)[C@@H](N)Cc1ccc(B(O)O)cc1)NC(=O)[C@H](Cc1ccc(B(O)O)cc1)NC(=O)[C@H](Cc1ccc(O)cc1)NC(=O)[C@@H](N)Cc1ccc(B(O)O)cc1)C(=O)N[C@@H](CO)C(=O)N[C@@H](Cc1ccc(O)cc1)C(N)=O
inhibition (measured: p24; U87-CD4/CXCR4, NL4-3; 10 µM): ~90%

Repeated from above:
COc1ccc(-n2c(SCCN(C)C)nnc2[C@H](Cc2ccccc2)NC(=O)Cc2c(C)[nH]c3ccccc23)cc1
selectivity index (MT-4, wild type; relative to: CC50 over EC50): 27

CC(=O)NCCN(CC(=O)NCCN(CC(=O)NCCN(CC(=O)NCCC(N)=O)C(=O)C[C@@H](N)CCCNC(=N)N)C(=O)C[C@@H](N)Cc1ccccc1)C(=O)C[C@@H](N)Cc1ccccc1
selectivity index (PBMC, LAI; relative to: CC50 over EC50): > 8

CC(=O)NCCN(CC(=O)NCCN(CC(=O)NCCN(CC(=O)NCCC(N)=O)C(=O)C[C@@H](N)Cc1ccccc1)C(=O)C[C@@H](N)CCCNC(=N)N)C(=O)C[C@@H](N)CCCNC(=N)N
selectivity index (PBMC, LAI; relative to: CC50 over EC50): > 10.5

CC(=O)OCC1OC(n2ccc(=O)[nH]c2=O)C2CC=CCC12 (mixture of isomers)
EC90 (viral replication; human PBM cells, LAI): > 100000 nM
